Measurements collected from several papers.
Every numbered part comes from another study and shows a few of its results, in no order.

Series 1
Target: Fragile X messenger ribonucleoprotein 1, C-terminal low-complexity region (Fmr1, Mus musculus, UniProt P35922)
Method: RNA Bind-n-Seq
Form: RNA
Sample: in vitro
Tested at: 200 nM
Setting: whole 134-nt RNA, ends assumed
Added: 150 mM LiCl
Reference: input library
Reading: higher = stronger binding
Each molecule: 7-deaza-guanosine replaces G
Shared flanks, not repeated: GGGAGUUCUACAGUCCGACGAUC … UGGAAUUCUCGGGUGUCAAGG
Sequence	log2 enrichment
AGUCCUGUGCUACACAUCGUAUGUACCGAAUCGGGGUGGGGUUUGGGGUUUUUGGGGAAAGUAUUAUGUUACGCCGUUCGGAUCUGCACU	-1.34
GUCCUGUGCUACACAUCGUAUGUACCGAAUCGGGAAAAAGGGAAAAAGGAAAAAGGGGAAAGUAUUAUGUUACGCCGUUCGGAUCUGCAC	0.255
AAGUCCUGUGCUACACAUCGUAUGUACCGAAUCGGAAAAGGGGAAAAGGGAAAAGGGAAAGUAUUAUGUUACGCCGUUCGGAUCUGCACU	0.217
UCCUGUGCUACACAUCGUAUGUACCGAAUCGGAAAAAAGGGGAAAAAAGGGAAAAAAGGGAAAGUAUUAUGUUACGCCGUUCGGAUCUGC	-0.331
UGGCCCUGGUGGCAUGCGGGGAGGAAGAGGUGGCCUCAUGGAUCGUGGUGGUCCCGGUGGAAUGUUCAGAGGAGGCCGUGGUGGAGACAG	-0.462
CACAGACAACACGCACCCACACAGACACAGAGGGAAGGGGUUGGGAUGGGGACAGGGUGCACAGCAGGGCGGGGUAGGACCCCAAAACCU	-1.21
ACCAUGCAGGUGGGCAUCGUUGGGAAGUGGGGCAAGGGGGGGAUAGGGAGGGGGGUAACACUUUGGGAACAGGUGGUCCCAGGUCGUUUC	1.43
AAGUCCUGUGCUACACAUCGUAUGUACCGAAUCGGAAAGGUUUUUUUGGAAAAAGGAAAGUAUUAUGUUACGCCGUUCGGAUCUGCACUU	-2.43

Series 2
Target: Histone acetyltransferase KAT6A, winged helix 2, GST fusion (KAT6A, Homo sapiens, UniProt Q92794, residues 85-181)
Method: protein binding microarray
Form: double-stranded DNA, one strand shown
Sample: in vitro
Tested at: not given
Setting: 8-mer, flanks averaged, mean of 2 arrays, mostly near background
Reference: not given
Reading: higher = stronger binding
Construct (chain): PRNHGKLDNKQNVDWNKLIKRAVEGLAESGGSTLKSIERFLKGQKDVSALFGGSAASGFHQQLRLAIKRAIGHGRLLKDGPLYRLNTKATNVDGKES
Sequence	E-score
CGGTGTAC	-0.0284
CGTAAACA	0.00295
CGTGGAAA	0.0312
AGCTAAGG	-0.0783
GGACTAAC	-0.0436
GGATCCGA	-0.0377
AGTCCATA	-0.271
ACGCTCAT	-0.125
GGAGACAC	0.015
ATGCCCTA	-0.0879
AGCCAATG	-0.0422
GATGGTAA	-0.158
CCTGAGAG	0.0134
AAATACAC	-0.182
ACATTGAC	-0.108
AACGCTGG	-0.0107
AGGGTAGG	-0.093
AAAATGTT	-0.0975
AAAGCAGA	0.0515
CAAAGATA	0.0558
AGGCCCGA	0.0224

Series 3
Target: RNA binding protein fox-1 homolog 2, RRM domain, GST-SBP tag (RBFOX2, Homo sapiens, UniProt O43251-10, residues 100-194)
Method: RNA Bind-n-Seq
Form: RNA
Sample: in vitro
Tested at: 365 nM
Setting: natural RNA segment, single round, ends assumed
Reference: no-protein control
Reading: higher = stronger binding
Shared flanks, not repeated: GGGAGUUCUACAGUCCGACGAUC … UGGAAUUCUCGGGUGCCAA
Residues (chain): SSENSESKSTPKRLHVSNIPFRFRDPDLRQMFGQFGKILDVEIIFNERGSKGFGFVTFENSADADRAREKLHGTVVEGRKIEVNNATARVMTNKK
Sequence	RBNS enrichment (R)
CCGACUUCCUUUCUGCGUCACCAGUGUCGUCAGCAGAGAGAGGACAGCACAGGCUCAAGGUUGGUAGUGAAGUCAGGUUCGGGGUGCAUGGGCUGUGGUGGUGUUGAUCA	1.42
UUUUUUAAUUGAUGGGAUACUAACCUUAAAUUCUAGCGUUGGUGCUUUGCACCAAGAGAAAGCUUUCCAAAAUUAACCUUCACAGCAGCGUUGUAAGUAACUGAGGUCCA	0.551
UUCACCGUCUAGCUUCCCCAGGGUAGGAAAGGUCUCCCACAUUAUGCAAUAAUAAAAUCAGCAUCUGGGUCUUUGCAGCUGUCAGUUGUUCUUUAAACUCUAGGAUCCAU	0.697
UCUCCCAAAGCUAAAUCUUUAUAUUAGGAACAAUUAAAUAUUGACUUAAGUUGUAAAAAUUGAGAGUACAAUAUCUUUAGGGAUAGUCAUUAUUUCUCACAACUAGUUCU	0.634
UUACUACAAAGAUUUGCAGAUCUUUAAUCAAGCACUAUGUUAAUACUGUAAUAUCAAAAUACUAUGUCGAAUUAUUUCAGAUGUUCAGAUUGAAUAGGGUAAAAGAAAGU	0.635
UUUUGUAACAGUGACCCUGUCUUAAGUCUUUCAGAUCUCUUUGCUUUGAAACUUCGUCGAUUCCAUUGUGAUAAGCGCACAAACAGCACUGUUGGUAACCGGUACUACUU	0.241
AAGCCAAGUGGAAUGGAGCCGGCCAAGCUGAGCCUGACUUUUUUCAAUAAAACAUUGUGUACUUCUGGCCUCCUGCUGCUCCGGCUCUUUUUUCCCUGGCGCCAAGGGAA	0.248
GAGAAUGUAUGGAAAUGCAUGUAUGUCCAGGCAGAAGUUUGCUACAGGAGUGAGGCCCUCAUGGAGAACCUCUGUUAAGGCAAUGUGGAAGGGGAAGCCCCCACACAGAG	12.1

Series 4
Target: Hepatocyte nuclear factor 3-alpha (Foxa1, Mus musculus, UniProt P35582, residues 1-468, full length assumed)
Method: EMSA with sequencing
Form: double-stranded DNA, one strand shown
Sample: in vitro
Tested at: 10 and 20 nM
Setting: whole designed probe, mean of two concentrations, ends assumed
Reference: negative control set to 0
Reading: higher = stronger binding
Shared flanks, not repeated: GTGAGCGGTGCCCATTGATGGGGAAC … TTTCACTGGGATCGTGGGGAC
Construct (chain): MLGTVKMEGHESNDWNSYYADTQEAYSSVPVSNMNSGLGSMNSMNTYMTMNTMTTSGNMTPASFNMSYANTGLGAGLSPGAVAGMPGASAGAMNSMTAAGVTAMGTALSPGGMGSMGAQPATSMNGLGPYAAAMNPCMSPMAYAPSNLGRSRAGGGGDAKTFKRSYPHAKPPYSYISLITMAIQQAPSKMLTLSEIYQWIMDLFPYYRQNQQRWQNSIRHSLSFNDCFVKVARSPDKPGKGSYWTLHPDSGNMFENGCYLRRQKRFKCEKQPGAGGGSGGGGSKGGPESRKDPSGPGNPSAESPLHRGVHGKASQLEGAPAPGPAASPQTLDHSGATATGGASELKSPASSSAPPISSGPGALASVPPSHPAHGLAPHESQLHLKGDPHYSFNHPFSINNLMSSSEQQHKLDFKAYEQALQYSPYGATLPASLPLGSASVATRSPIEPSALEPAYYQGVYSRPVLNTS
Sequence	normalised bound fraction
GTGTGTGCGCGCGCGTGTGTGTGTGTTTTCTTAAGCCGGGCTATTCAAACCCTGCTGCAATTCTCCGGTAAACAATGATTCATGGGGCATAATGCAAATAAACGGATTGCAAACGGCGCGGTTCGCGCACTTTGCAGCCGGCCCGGTGGAGCAGCCAGTGCCGGATTTCTCCCTTTTTTTGCAGATCTGCAGA	0.415 ratio
GTAAAATTAATCCAAAGACACGGAAAGTCCATGAATTTCAGTTCTAACAGAAAATTTTTGAATTAAATTTTCAAAAGGTTGTAACTGACAGAGTAAACATGTACTAGGTACAAGAGGTAATGAATTCTGAAGTTATGAAGTATTTGTATTCCAAGTGGAAATGCAATTGTTTACCTGAATTTTGGGCCCAGAA	0.272 ratio
AAAAGATTTGGTATCGTTTAAAAAAAAAAAAAAGCTGGGTGGGGCCGAGGAGAATCCACCCAAACTTTCCTCAGGAAGTAGGATGTTTACTGAGTAAATATGCGGTAGTCACAGAAAGTCCTGCTACTCCTTTAAGACCTCAGGAGCCACCACCGCCACCTCCTGGCCACATCCGGGCACTTCTCTGCAAACT	0.357 ratio
ATCTTCCCCCTCTTCCTTGCCCCACCAGTTTACCTTCCCGGGTATATTGGAGATAGGAAATTAATATAAGCCGGCATTCGTTAACCCTCTTCTGGCGCAAACTGCACATTGGTCTGGATGAATCATGGTCCTTTGGCGACGCCAGGCTCCGGGAGAGCAAAGCACCGTGTCAGGGCCATGATCCGGGGTGGCC	0.0217 ratio
CACAAAATTTTCCATTTGCTTCTCCTGCATTTAGAAGCATCCACTTCCCTCTCTTCCCTTTGCTTTTGAAATATAAGTGTAATATTTGCCCAGGGTAAACAGACTTGGAGCTTGGGAGACAGCATTGTGTAATGGATGTTAATTTGGCCTGATTTCACTCTTGGCTCTCTGATTTGTTAGATCTATGAACCTG	0.205 ratio

Repeated from above (series 2):
Sequence	E-score
AAAGCAGA	0.0515
AGCTAAGG	-0.0783
CGTGGAAA	0.0312
